Results gathered from unrelated publications.
Each numbered part is a random draw from the data of one study; scales do not carry over between parts.
Sequence of UniProt P25774 (whole entry, looked up): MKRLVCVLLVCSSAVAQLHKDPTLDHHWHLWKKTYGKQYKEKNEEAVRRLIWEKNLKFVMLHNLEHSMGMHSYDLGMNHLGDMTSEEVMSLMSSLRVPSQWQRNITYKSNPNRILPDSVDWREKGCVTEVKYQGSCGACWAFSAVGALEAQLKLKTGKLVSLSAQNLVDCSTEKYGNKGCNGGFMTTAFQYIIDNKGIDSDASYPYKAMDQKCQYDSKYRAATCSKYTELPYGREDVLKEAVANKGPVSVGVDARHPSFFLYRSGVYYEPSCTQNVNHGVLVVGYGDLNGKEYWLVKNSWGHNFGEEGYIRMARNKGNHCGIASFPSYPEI
Sequence of UniProt P03951 (whole entry, looked up): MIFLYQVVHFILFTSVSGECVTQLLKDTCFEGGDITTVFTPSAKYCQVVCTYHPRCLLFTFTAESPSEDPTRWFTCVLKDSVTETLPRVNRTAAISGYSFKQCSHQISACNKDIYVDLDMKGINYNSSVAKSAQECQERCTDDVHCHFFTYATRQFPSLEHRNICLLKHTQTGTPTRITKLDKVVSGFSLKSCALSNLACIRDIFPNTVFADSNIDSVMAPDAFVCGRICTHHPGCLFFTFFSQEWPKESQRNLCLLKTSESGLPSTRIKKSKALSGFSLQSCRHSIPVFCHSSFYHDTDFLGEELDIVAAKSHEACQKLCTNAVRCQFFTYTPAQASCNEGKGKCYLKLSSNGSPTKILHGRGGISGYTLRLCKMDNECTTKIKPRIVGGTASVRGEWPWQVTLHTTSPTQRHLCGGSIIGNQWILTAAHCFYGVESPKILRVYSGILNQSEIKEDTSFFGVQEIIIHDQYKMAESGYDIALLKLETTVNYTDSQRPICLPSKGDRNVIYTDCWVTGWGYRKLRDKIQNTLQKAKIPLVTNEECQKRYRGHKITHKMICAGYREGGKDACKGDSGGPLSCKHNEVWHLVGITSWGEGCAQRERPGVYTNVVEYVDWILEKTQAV
Sequence of UniProt Q9UKR0 (whole entry, looked up): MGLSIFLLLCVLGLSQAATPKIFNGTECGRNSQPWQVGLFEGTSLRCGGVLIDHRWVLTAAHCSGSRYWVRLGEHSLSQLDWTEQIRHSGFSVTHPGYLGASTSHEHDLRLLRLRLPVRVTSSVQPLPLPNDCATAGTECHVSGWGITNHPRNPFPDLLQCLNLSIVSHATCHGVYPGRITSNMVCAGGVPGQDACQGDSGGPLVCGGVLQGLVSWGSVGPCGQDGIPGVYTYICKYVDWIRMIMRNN
Sequence of UniProt P20231 (whole entry, looked up): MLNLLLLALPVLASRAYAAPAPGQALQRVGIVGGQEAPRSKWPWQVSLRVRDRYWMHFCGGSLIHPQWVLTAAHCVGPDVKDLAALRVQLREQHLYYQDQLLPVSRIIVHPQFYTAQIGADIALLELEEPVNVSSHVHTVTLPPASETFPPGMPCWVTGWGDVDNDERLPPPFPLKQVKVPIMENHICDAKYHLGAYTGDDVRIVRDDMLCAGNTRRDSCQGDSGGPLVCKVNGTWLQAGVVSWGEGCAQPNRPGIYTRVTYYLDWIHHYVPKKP

Sample 1
Target: Diamine acetyltransferase 1 (Homo sapiens, UniProt P21673)
Action: inhibitor
Tested at: 10 µM
Baseline: control
Target sequence (P21673 1-171): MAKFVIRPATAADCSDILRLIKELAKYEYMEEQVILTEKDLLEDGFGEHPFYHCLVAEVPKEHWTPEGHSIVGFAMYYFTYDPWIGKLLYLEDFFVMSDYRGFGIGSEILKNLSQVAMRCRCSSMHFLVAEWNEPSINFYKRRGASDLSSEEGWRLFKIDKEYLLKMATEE
Structure (SMILES) | remaining activity [%]
CCNCC | 97.7
COc1cc([C@@H]2OC[C@@H]3[C@H]2CO[C@H]3c2cc(OC)c(O[C@@H]3O[C@H](CO)[C@@H](O)[C@H](O)[C@H]3O)c(OC)c2)cc(OC)c1O[C@@H]1O[C@H](CO)[C@@H](O)[C@H](O)[C@H]1O | 119
C[C@@H]1O[C@@H](O[C@@H]2C=C3CC[C@@H]4[C@H](CC[C@]5(C)[C@@H](c6ccc(=O)oc6)CC[C@]45O)[C@@]3(C)CC2)[C@H](O)[C@H](O)[C@H]1O | 87

Sample 2
Cell line: A-375
Tested at: 100 µM
Time: 18 h
Structure (SMILES) | viability
O=P1(NCCCl)OCCCN1CCCl (stereo not shown) | 91.8%
Clc1ccc(C(OCCN2CCCCC2)c2ccccc2)cc1 (stereo not shown) | 8.66%
Cc1ccc(-n2nccn2)c(C(=O)N2CCN(c3nc4cc(Cl)ccc4o3)CC[C@H]2C)c1 | 17.2%
CC(C)c1cccc(C(C)C)c1O | 14.4%

Sample 3
SMILES: CN(C)C(=O)COC(=O)Cc1ccc(OC(=O)c2ccc(NC(=N)N)cc2)cc1
target | IC50
F11 (Homo sapiens, UniProt P03951) | 3.46 nM
Kallikrein-12 (Homo sapiens, UniProt Q9UKR0) | 1310 nM
Cathepsin S (CTSS, Homo sapiens, UniProt P25774) | > 10000 nM
Tryptase beta-2 (TPSB2, Homo sapiens, UniProt P20231) | < 0.508 nM

Other studies, line by line
Host: human
Medium: microsomes or S9
Tested at: 2 µM
Time: 0.5 h
Compound | remaining compound [%]
COc1cc(C2NCc3ccccc3-n3cccc32)ccc1O (stereo not shown) | > 100
CN1CCN(C(=O)Cc2ccc(Br)cc2)CC1 | 92.5

Repeated from above (other studies, line by line):
Compound | remaining compound [%]
CN1CCN(C(=O)Cc2ccc(Br)cc2)CC1 | 92.5
